Published values of several laboratories.
Each line is one published result; not all experiments were run side by side. Values joined by “and” are separate records of one study, mostly repeats; a detail may differ.

| Structure (SMILES) | target | test | system | setting | scale | measurement | value |
| --- | --- | --- | --- | --- | --- | --- | --- |
| CCS(=O)(=O)c1nc(C2CC2)cc(C(F)(F)F)n1 | importin alpha/beta-1 | cMyc nuclear import, high content imaging | HeLa Kyoto reporter | 0.158 µM, 2 h |  | cells with nuclear reporter | 97.3% and 85.8% and 71.2% and 86.4% |
| Cc1cccc(C)c1NC(=O)C1CCCCN1C (stereo not drawn) | H+/organic cation antiporter | cell uptake | hCMEC/D3 |  |  | Km | 137 µM |
| C[C@@H]1CC[C@H]2[C@@H](/C1=C/C[C@H]1[C@]3(C)CCC(=O)C(C)(C)O[C@H]3CC[C@]1(C)O)C(C)(C)CC[C@]2(C)O | P-glycoprotein human | inhibitor, efflux | KB-C2 | 10 µM, 120 min, added: [3H]-paclitaxel |  | paclitaxel remaining | 64.3% |
| Cc1nc2n(c(=O)c1CCN1CCC(c3noc4cc(F)ccc34)CC1)CCCC2 | H+/organic cation antiporter | cell uptake | hCMEC/D3 |  |  | Vmax | 2420 pmol/min/mg protein |
| Oc1ccccc1-c1n[nH]cc1-c1ccnc2ccccc12 | SAK1 (Candida albicans) | kinase binding, MIB/MS competition | Candida albicans lysate | 1 µM | relative to: DMSO | log2 fold change | -0.04 |
| CC[S+]([O-])c1nc(-c2ccccc2)cc(C(F)(F)F)n1 (stereo not drawn) | importin alpha/beta-1 | cMyc nuclear import, high content imaging | HeLa Kyoto reporter | 0.0158 µM, 2 h |  | cells with nuclear reporter | 87.4% and 88.4% and 85.4% and 77% |
| C[C@H]1C[C@@H](N2C(=N)N[C@](C)(c3cccc(NC(=O)c4cccc(C#N)c4)c3Cl)CC2=O)CCO1 | human cardiac ion channels | ion current |  | panel other channels |  | IC50 | > 30 µM |
| O=C(CCCN1CCC(O)(c2ccc(Cl)cc2)CC1)c1ccc(F)cc1 | H+/organic cation antiporter | cell uptake | hCMEC/D3 |  |  | Km | 76.8 µM |
| c1coc(-c2n[nH]cc2-c2ccnc3ccccc23)c1 | RIO2 (Candida albicans) | kinase binding, MIB/MS competition | Candida albicans lysate | 10 µM | relative to: DMSO | log2 fold change | -0.15 |

A few entries again:
| Structure (SMILES) | target | test | system | setting | scale | measurement | value |
| --- | --- | --- | --- | --- | --- | --- | --- |
| C[C@@H]1CC[C@H]2[C@@H](/C1=C/C[C@H]1[C@]3(C)CCC(=O)C(C)(C)O[C@H]3CC[C@]1(C)O)C(C)(C)CC[C@]2(C)O | P-glycoprotein human | inhibitor, efflux | KB-C2 | 10 µM, 120 min, added: [3H]-paclitaxel |  | paclitaxel remaining | 64.3% |
